# Measured values of several laboratories.
# Lines come from different studies, so protocols differ. Several values in a cell are separate wells, animals, samples, runs or records. Numbers after ± are the reported error.
# TDP1: Tyrosyl-DNA phosphodiesterase 1 (TDP1, Homo sapiens, UniProt Q9NUW8)
# UniProt Q9NUW8, sequence (whole entry, looked up): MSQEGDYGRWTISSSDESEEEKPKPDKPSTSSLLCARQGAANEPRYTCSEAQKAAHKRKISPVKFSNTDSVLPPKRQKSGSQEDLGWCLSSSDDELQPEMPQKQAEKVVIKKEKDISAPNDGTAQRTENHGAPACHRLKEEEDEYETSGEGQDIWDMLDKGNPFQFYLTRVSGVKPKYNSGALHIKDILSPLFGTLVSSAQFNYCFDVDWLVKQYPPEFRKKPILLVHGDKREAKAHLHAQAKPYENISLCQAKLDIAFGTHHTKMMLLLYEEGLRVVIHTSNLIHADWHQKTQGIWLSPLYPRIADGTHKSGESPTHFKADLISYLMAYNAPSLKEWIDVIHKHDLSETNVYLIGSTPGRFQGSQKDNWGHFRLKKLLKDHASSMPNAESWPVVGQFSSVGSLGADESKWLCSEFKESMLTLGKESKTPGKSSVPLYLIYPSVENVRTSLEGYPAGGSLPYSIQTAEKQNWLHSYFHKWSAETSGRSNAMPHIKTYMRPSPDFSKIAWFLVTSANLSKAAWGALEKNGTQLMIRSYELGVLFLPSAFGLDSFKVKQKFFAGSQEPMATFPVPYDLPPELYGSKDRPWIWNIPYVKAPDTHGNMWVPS
# UniProt Q92887, sequence (whole entry, looked up): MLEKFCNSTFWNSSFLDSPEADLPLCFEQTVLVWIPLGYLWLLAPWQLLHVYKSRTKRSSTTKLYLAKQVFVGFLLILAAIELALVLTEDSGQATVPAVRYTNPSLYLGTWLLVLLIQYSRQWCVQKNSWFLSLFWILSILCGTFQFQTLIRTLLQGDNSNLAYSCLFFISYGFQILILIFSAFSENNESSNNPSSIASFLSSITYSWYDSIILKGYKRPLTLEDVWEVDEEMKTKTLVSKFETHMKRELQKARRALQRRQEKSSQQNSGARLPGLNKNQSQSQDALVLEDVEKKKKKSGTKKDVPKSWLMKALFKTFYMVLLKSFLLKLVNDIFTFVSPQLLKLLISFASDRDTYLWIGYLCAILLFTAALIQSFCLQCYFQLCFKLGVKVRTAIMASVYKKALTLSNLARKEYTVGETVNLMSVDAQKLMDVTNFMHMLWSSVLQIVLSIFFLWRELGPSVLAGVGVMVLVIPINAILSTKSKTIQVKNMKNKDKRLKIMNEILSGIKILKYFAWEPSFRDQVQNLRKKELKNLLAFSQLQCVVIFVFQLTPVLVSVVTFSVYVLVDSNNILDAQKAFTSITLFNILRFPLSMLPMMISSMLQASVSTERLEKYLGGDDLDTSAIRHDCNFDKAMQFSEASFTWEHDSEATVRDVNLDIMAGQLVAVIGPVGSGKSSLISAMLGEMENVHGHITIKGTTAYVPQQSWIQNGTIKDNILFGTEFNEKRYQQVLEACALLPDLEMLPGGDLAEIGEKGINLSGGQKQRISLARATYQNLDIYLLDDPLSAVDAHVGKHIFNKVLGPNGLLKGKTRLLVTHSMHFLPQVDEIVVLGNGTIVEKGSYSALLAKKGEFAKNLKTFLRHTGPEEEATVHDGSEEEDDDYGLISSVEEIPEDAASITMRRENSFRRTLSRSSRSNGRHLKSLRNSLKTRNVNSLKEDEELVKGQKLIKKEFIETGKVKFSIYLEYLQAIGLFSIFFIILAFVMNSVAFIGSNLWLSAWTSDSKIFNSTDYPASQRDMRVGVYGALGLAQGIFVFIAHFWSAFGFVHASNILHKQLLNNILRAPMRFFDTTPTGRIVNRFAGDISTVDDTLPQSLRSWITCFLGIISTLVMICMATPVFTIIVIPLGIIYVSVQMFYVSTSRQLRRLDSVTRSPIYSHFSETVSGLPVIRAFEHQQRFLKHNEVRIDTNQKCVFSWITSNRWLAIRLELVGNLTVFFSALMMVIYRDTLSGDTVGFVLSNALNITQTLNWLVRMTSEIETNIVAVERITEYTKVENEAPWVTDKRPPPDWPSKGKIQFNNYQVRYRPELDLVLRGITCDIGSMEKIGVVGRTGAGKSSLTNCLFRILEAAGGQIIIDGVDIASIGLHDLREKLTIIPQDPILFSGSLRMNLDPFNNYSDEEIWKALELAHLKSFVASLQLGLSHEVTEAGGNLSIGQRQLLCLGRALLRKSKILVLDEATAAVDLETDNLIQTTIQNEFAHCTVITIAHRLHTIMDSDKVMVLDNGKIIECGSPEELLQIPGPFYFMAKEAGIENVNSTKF
Substance,target or system,assay,system,setting,quantity,value
CCCC[C@H](NC(=O)CCCCCCCNC(=O)CN1CCN(CC(=O)O)CCN(CC(=O)O)CC1)C(=O)N[C@H]1CC(=O)NCCCC[C@@H](C(N)=O)NC(=O)[C@H](Cc2c[nH]c3ccccc23)NC(=O)[C@H](CCCNC(=N)N)NC(=O)[C@@H](Cc2ccccc2)NC(=O)[C@H](Cc2c[nH]cn2)NC1=O [technetium-99m labelled],,,"C57 mouse, muscle","intravenous, 0.037 MBq, 24 h",tissue uptake,0.06 ± 0.02 %ID/g
"ABCC2 (Homo sapiens, UniProt Q92887)",O=C(c1ccc(OCCN2CCCCC2)cc1)c1c(-c2ccc(O)cc2)sc2cc(O[C@@H]3O[C@H](C(=O)O)[C@@H](O)[C@H](O)[C@H]3O)ccc12,steady-state kinetics,Sf9 vesicles,"pH 7, 37 °C, not purified, together with: ATP",Km,18.6 µM
C[C@@H](O)[C@@H]1NC(=O)[C@H](CCCCN)NC(=O)[C@@H](Cc2c[nH]c3ccccc23)NC(=O)[C@H](Cc2ccc(O)cc2)NC(=O)[C@@H](NC(=O)[C@@H](Cc2ccccc2)NC(=O)CN2CCN(CC(=O)O)CCN(CC(=O)O)CCN(CC(=O)O)CC2)CSSC[C@@H](C(=O)N[C@H](CO)[C@@H](C)O)NC1=O [gallium-67 labelled],,gamma counting,"ICR mice, male, kidney","iv, 11 kBq/mouse, 3 h",tissue uptake,6.32 ± 1.13 %ID/g
CC(C)C[C@H](NC(=O)[C@@H](CCCCNC(=O)[C@@H](Cc1ccccc1)NC(=O)CCCCCNC(=O)CN1CCN(CC(=O)O)CCN(CC(=O)O)CCN(CC(=O)O)CC1)NC(=O)[C@H](Cc1ccc(O)cc1)NC(=O)[C@H](CO)NC(=O)[C@H](Cc1c[nH]c2ccccc12)NC(=O)[C@H](Cc1c[nH]cn1)NC(=O)[C@@H]1CCC(=O)N1)C(=O)N[C@@H](CCCNC(=N)N)C(=O)N1CCC[C@H]1C(=O)NCC(N)=O [indium-111 labelled],,,"female athymic nude mice, heart","intravenous, 0.037 MBq, 4 h",tissue uptake,0.02 ± 0.02 %ID/g
CC(C)C[C@H](NC(=O)[C@H](Cc1ccc(O)cc1)NC(=O)[C@@H](CCCNC(=N)N)NC(=O)[C@@H](CO)NC(=O)[C@H](Cc1ccccc1)NC(=O)[C@H](CC1CCCCC1)NC(=O)[C@H](CC(=O)O)NC(=O)CN1CCN(CC(=O)O)CCN(CC(=O)O)CCN(CC(=O)O)CC1)C(=O)N[C@@H](Cc1c[nH]c2ccccc12)C(=O)N[C@@H](CO)C(=O)O [copper-64 labelled],,,"human, muscle","concentration not given, 24 h",activity concentration,186 Bq/mL and 209 Bq/mL and 166 Bq/mL and 165 Bq/mL and 230 Bq/mL and 235 Bq/mL
Nc1oc2ccc(F)cc2c(=O)c1C=NOCc1ccc(-c2nc3cc(-c4ccccc4)ccn3c2Nc2ccc(C(=O)O)cc2)cc1 (mixture of isomers),TDP1,"enzyme activity, inhibitor",,"100 µM, unpurified compound",inhibition,61.9%
CCCC[C@H](NC(=O)COCCOCCNC(=O)CN1CCN(CC(=O)O)CCN(CC(=O)O)CC1)C(=O)N[C@H]1CC(=O)NCCCC[C@@H](C(N)=O)NC(=O)[C@H](Cc2c[nH]c3ccccc23)NC(=O)[C@H](CCCNC(=N)N)NC(=O)[C@@H](Cc2ccccc2)NC(=O)[C@H](Cc2c[nH]cn2)NC1=O [technetium-99m labelled],,,"C57 mouse, liver","intravenous, 0.037 MBq, 24 h",tissue uptake,0.02 ± 0.02 %ID/g
COc1cc(N2CCCC2)ccc1C=NOCc1ccc(-c2nc3cc(-c4ccccc4)ccn3c2Nc2ccc(C(=O)O)cc2)cc1,TDP1,"enzyme activity, inhibitor",,100 µM,inhibition,87.2%
CC(C)C[C@@H](NC(=O)[C@@H](CC(C)C)NC(=O)[C@@H](CC(=O)O)NC(=O)[C@@H](CC(C)C)NC(=O)[C@@H](CC(C)C)NC(=O)[C@@H](CC(C)C)NC(=O)[C@H](NC(=O)[C@@H](CC(=O)O)NC(=O)[C@H](NC(=O)[C@H]1CCCN1C(=O)[C@@H](Cc1ccccc1)NC(=O)[C@@H](CC(C)C)NC(=O)[C@@H](CC(C)C)NC(=O)[C@@H](CC(=O)O)NC(=O)[C@@H](CC(C)C)NC(=O)[C@@H](Cc1ccc(O)cc1)NC(=O)[C@@H](C)NC(=O)[C@@H](CCCNC(=N)N)NC(=O)[C@@H](Cc1c[nH]c2ccccc12)NC(=O)[C@H]1CCCN1C(=O)[C@@H](CC(N)=O)NC(=O)[C@@H](CCC(N)=O)NC(=O)[C@@H](CC(=O)O)NC(=O)[C@@H](CC(=O)O)NC(=O)[C@@H](CSC1CC(=O)N(CCNC(=O)CN2CCN(CC(=O)O)CCN(CC(=O)O)CC2)C1=O)NC(=O)[C@@H](C)N)[C@H](C)O)[C@H](C)O)C(=O)N[C@H](Cc1c[nH]c2ccccc12)C(=O)O (stereo partly shown) [copper-64 labelled],,,"C57BL/6 mice, female, B16-F10 melanoma, blood","intravenous, 4 h",tissue uptake,19.5 %ID/g
C=C1CC[C@H](OCCCNC(=O)CCOCCOCCOCCOCCOCCOCCOCCOCCOCCOCCOCCOCCOCCOCCOCCOCCOCCOCCOCCOCCOCCOCCOCCOCCOCCOCCOCCOCCOCCOCCOCCOCCOCCOCCOCCOCCNC(=O)CCN2C(=O)CC(SC[C@H](NC(=O)[C@H](Cc3ccccc3)NC(=O)[C@H](CC(N)=O)NC(=O)[C@H](Cc3c[nH]cn3)NC(=O)[C@@H](NC(=O)[C@H](CC(=O)O)NC(=O)[C@H](CCC(N)=O)NC(=O)[C@H](CC(C)C)NC(=O)[C@H](CCCCN)NC(=O)[C@H](CCCCN)NC(=O)[C@H](CCCNC(=N)N)NC(=O)[C@H](CC(C)C)NC(=O)[C@H](Cc3c[nH]c4ccccc34)NC(=O)[C@H](CCC(=O)O)NC(=O)[C@@H](NC(=O)[C@H](CCCNC(=N)N)NC(=O)[C@H](CCC(=O)O)NC(=O)[C@H](CCSC)NC(=O)[C@H](CO)NC(=O)[C@H](CC(N)=O)NC(=O)[C@H](CC(C)C)NC(=O)[C@H](Cc3c[nH]cn3)NC(=O)[C@H](CCCCN)NC(=O)CNC(=O)[C@H](CC(C)C)NC(=O)[C@H](CC(N)=O)NC(=O)[C@H](Cc3c[nH]cn3)NC(=O)[C@H](CCSC)NC(=O)[C@H](CC(C)C)NC(=O)[C@H](CCC(N)=O)NC(=O)[C@@H](NC(=O)[C@H](CCC(=O)O)NC(=O)[C@H](CO)NC(=O)[C@@H](NC(=O)[C@@H](N)CO)C(C)C)[C@@H](C)CC)C(C)C)C(C)C)C(=O)O)C2=O)C/C1=C/C=C1\CCC[C@]2(C)[C@@H]([C@H](C)CCCC(C)(C)O)CC[C@@H]12 (stereo partly shown),,,"male Sprague-Dawley rat, plasma","subcutaneous, 300 µg/kg, single dose",clearance,0.382 mL/min/kg

# Some of these lines once more:
Substance,target or system,assay,system,setting,quantity,value
CCCC[C@H](NC(=O)COCCOCCNC(=O)CN1CCN(CC(=O)O)CCN(CC(=O)O)CC1)C(=O)N[C@H]1CC(=O)NCCCC[C@@H](C(N)=O)NC(=O)[C@H](Cc2c[nH]c3ccccc23)NC(=O)[C@H](CCCNC(=N)N)NC(=O)[C@@H](Cc2ccccc2)NC(=O)[C@H](Cc2c[nH]cn2)NC1=O [technetium-99m labelled],,,"C57 mouse, liver","intravenous, 0.037 MBq, 24 h",tissue uptake,0.02 ± 0.02 %ID/g
